Experimental data of several laboratories.
A part holds a random share of what one study measured. Substitutions count along the parent as printed.
UniProt Q9C0B0, sequence (30-357, looked up): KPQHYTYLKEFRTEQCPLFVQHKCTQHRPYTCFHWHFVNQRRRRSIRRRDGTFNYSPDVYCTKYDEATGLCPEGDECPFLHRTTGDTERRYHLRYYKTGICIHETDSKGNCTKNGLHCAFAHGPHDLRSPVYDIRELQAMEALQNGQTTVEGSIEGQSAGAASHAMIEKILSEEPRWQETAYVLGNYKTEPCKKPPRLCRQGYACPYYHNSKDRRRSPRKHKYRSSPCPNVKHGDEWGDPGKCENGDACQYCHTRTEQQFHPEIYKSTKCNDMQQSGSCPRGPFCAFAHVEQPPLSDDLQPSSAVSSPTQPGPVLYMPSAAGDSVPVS

Block 1 — method: DHFR PCA, deep sequencing; sample: yeast; with: (+)-ABA 0.11 µM; baseline: wild-type fitted maximum; direction: higher = stronger binding
Target: ABI1, truncated, D143A, DHFR fusion (Arabidopsis thaliana)
Notes: methotrexate growth selection, single substitutions
Starting sequence: PYL1, truncated, DHFR fusion (Arabidopsis thaliana); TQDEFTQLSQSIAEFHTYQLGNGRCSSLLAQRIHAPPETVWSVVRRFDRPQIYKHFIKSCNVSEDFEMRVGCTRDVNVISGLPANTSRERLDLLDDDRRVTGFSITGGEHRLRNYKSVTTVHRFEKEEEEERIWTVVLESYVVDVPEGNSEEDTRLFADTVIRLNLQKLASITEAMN; partner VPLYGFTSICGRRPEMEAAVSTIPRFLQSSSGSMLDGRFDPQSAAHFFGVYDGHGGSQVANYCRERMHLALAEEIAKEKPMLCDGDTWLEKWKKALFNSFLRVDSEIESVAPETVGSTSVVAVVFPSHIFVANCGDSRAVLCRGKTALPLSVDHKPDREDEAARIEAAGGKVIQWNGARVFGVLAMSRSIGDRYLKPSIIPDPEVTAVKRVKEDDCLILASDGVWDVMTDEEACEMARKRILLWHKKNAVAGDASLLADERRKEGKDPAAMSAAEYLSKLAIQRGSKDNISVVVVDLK
Under “relative binding score”, `L94C` is recorded as -6.08%.
`K116L` — result for “relative binding score”: -8.53%.
`T120S` — result for “relative binding score”: 65.8%.
`R99Y`: “relative binding score” 77.7%.
`F66P` — result for “relative binding score”: -4.11%.
`R74T`: “relative binding score” 0.187%.
`P83W`: “relative binding score” 8.31%.
`V43E` — result for “relative binding score”: -1.59%.
`R132Q`: “relative binding score” 52.7%.
For `D153P`, “relative binding score” read 0.847%.
Under “relative binding score”, `D144A` is recorded as -1.44%.
`T1A`: “relative binding score” 30.8%.
`A13M`: “relative binding score” 21.7%.
`L8E`: “relative binding score” 6.39%.
For `I172T`, “relative binding score” read 2.46%.
`V44K` — result for “relative binding score”: -0.41%.
For `R88C`, “relative binding score” read 20.5%.
For `T86H`, “relative binding score” read 23.9%.
Under “relative binding score”, `R90E` is recorded as 2.7%.
Under “relative binding score”, `N149T` is recorded as 49%.
For `K126G`, “relative binding score” read 59.7%.
`R24K` — result for “relative binding score”: 51.2%.
For `R32M`, “relative binding score” read 30.5%.
`D65M` — result for “relative binding score”: 8.15%.
`S9N`: “relative binding score” 25.5%.

Block 2 — method: RNAcompete; molecule type: RNA; sample: in vitro; tested at: 20 nM; notes: 7-mer, probes averaged, single round; baseline: mean of 7-mers; direction: higher = stronger binding
Target: PABPC1L2, full length, GST fusion (mouse, UniProt A0ABA7IW68)
Construct (chain): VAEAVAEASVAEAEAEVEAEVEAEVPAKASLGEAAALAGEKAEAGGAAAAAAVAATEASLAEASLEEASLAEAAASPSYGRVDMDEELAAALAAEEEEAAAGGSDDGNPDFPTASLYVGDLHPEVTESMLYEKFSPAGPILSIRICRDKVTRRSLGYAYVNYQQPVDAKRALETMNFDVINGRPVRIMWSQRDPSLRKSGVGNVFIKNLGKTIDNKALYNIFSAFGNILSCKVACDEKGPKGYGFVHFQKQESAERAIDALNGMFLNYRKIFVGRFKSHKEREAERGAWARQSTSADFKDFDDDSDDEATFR
For `CCCUUGA`, the 7-mer Z-score was -0.266.
The 7-mer Z-score of `CCUUUCC` is reported as -0.387.
`GUUACAC` gave a 7-mer Z-score of -0.264.
With `AAAUCAC` the 7-mer Z-score was 0.856.
`ACUUAGG` gave a 7-mer Z-score of -0.0409.
For `AGAUAAC`, the 7-mer Z-score was -0.0899.
The 7-mer Z-score of `GUGCCUG` is reported as -0.122.
With `CGCACGG` the 7-mer Z-score was -0.251.
`CGUUUCG` gave a 7-mer Z-score of -0.566.
The 7-mer Z-score of `UAUUAUC` is reported as -0.295.
`UGCAUAC` gave a 7-mer Z-score of -0.267.
With `CAAACUU` the 7-mer Z-score was 0.0787.
`UGGAACG` gave a 7-mer Z-score of 0.0932.
`ACUGAAC` gave a 7-mer Z-score of -0.101.
For `UUAACGA`, the 7-mer Z-score was -0.0228.
The 7-mer Z-score of `AUUACCG` is reported as -0.199.
`ACUGUUC` gave a 7-mer Z-score of -0.311.
With `GCGCCGC` the 7-mer Z-score was -0.327.
With `GUAAAAG` the 7-mer Z-score was 1.56.
For `UACCCCG`, the 7-mer Z-score was -0.374.
For `AGCUACC`, the 7-mer Z-score was 0.0696.
The 7-mer Z-score of `CGUUCAG` is reported as -0.304.
`AAUAUCA` gave a 7-mer Z-score of 0.265.
`UGGACAG` gave a 7-mer Z-score of 0.075.
With `AGAUCAU` the 7-mer Z-score was -0.188.

Block 3 — target: CREB3L1, bZIP domain (human); method: DHFR protein complementation; sample: yeast; baseline: wild-type JUN-FOS pair; direction: higher = stronger binding
Notes: single substitutions, most at no-binding floor
Starting sequence: JUN, bZIP domain (human); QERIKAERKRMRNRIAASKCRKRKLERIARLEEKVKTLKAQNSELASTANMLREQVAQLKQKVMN; partner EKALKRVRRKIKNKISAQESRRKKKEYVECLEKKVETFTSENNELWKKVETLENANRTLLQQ
For `K39F`, the binding fitness was -1.5 natural log.
The binding fitness of `R53D` is reported as -1.42 natural log.
`E33T` has a binding fitness of -1.4 natural log.
`M51C` gave a binding fitness of -1.39 natural log.
`E32H` gave a binding fitness of -1.54 natural log.
`S47I` has a binding fitness of -1.36 natural log.
The binding fitness of `Q41A` is reported as -1.3 natural log.
The binding fitness of `A46V` is reported as -1.13 natural log.
The binding fitness of `L45W` is reported as -1.59 natural log.
With `V56K` the binding fitness was -1.37 natural log.
The binding fitness of `S47G` is reported as -1.37 natural log.
For `M51R`, the binding fitness was -1.31 natural log.
For `K39W`, the binding fitness was -1.46 natural log.
The binding fitness of `E33N` is reported as -1.43 natural log.
`N42D` gave a binding fitness of -1.46 natural log.
With `E32F` the binding fitness was -1.46 natural log.
With `Q41G` the binding fitness was -1.48 natural log.

Block 4 — method: protein binding microarray; molecule type: double-stranded DNA, one strand shown; sample: in vitro; tested at: not given; baseline: not given; direction: higher = stronger binding
Target: Histone acetyltransferase KAT6A, winged helix 2, GST fusion (KAT6A, Homo sapiens, UniProt Q92794, residues 85-181)
Notes: 8-mer, flanks averaged, mean of 2 arrays, mostly near background
Construct (chain): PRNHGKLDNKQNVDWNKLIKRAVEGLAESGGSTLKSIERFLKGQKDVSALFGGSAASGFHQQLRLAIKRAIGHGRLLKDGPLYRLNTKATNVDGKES
With `AAATCCAG` the E-score was 0.042.
For `AGTTCTTA`, the E-score was 0.0843.
`ATATTGAA` has an E-score of 0.00775.
With `CAAACCTC` the E-score was -0.171.
With `GCTCTTTA` the E-score was 0.109.
`TGCATGCA` has an E-score of 0.218.
`ACGACCAC` gave an E-score of -0.119.
For `GCGGCGTA`, the E-score was 0.00696.
With `ACCTCACC` the E-score was -0.171.
`ACATCGCT` gave an E-score of -0.0477.
With `AACGCCAC` the E-score was -0.0548.
`CGGTGTCC` has an E-score of 0.189.
With `ACACACGC` the E-score was -0.0663.
`GTGGAAAC` gave an E-score of -0.0356.
For `AACCCCAC`, the E-score was -0.0933.
`CTGCCAAA` gave an E-score of 0.0687.
`AAGAGAGT` has an E-score of -0.171.
With `GAGTACTC` the E-score was 0.123.
With `CAGATACA` the E-score was -0.0548.
With `AGGGTACC` the E-score was -0.161.
`ATCTGCTA` has an E-score of -0.024.
The E-score of `ATTTGCAG` is reported as 0.00387.

Block 5 — target: CCNB2, cyclin fold, Cln2 fusion (human); method: yeast growth competition, sequencing; sample: yeast; notes: weak parent motif; baseline: not given; direction: higher = stronger binding
Starting sequence: PLK5 docking peptide (human); IFRKVGQRLLTQC
`G6A` — result for “normalised enrichment score”: 0.542.
`C13A`: “normalised enrichment score” 0.657.
`Q7A`: “normalised enrichment score” 0.31.
For `L10A`, “normalised enrichment score” read -0.212.
`R8A` — result for “normalised enrichment score”: 0.348.
`L9A`: “normalised enrichment score” 0.359.
Under “normalised enrichment score”, `F2A` is recorded as 0.465.

Block 6 — method: RNA Bind-n-Seq; molecule type: RNA; sample: in vitro; tested at: 365 nM; baseline: no-protein control; direction: higher = stronger binding
Target: RNA binding protein fox-1 homolog 2, RRM domain, GST-SBP tag (RBFOX2, Homo sapiens, UniProt O43251-10, residues 100-194)
Notes: natural RNA segment, single round, ends assumed
Constant ends, left off below: GGGAGUUCUACAGUCCGACGAUC … UGGAAUUCUCGGGUGCCAA
Construct (chain): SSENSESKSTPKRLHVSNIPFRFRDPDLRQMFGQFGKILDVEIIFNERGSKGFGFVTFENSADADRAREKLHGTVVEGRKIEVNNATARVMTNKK
For `ACUCACAACCCCGAUCUGCAAGGUAUCGUUAAGGAAUGAGUAUCUUCAGUGUGGCAAAGGAGUAGUGUAGUUCCCUCCACAGGCCCUGUCGUAAUAAAAGCCUCAGUGCA`, “RBNS enrichment (R)” read 0.529.
`GUGCGCCAGUUUGGGUUGCCGUUACCAGUUCAAUAUAGCCCUGCAUUUAAAAUUCCUUUUAAGAUUCGUGGAUUUUAUUUUUAUUAAGUAUAUAGAUAUAUAAAGUACUG` — result for “RBNS enrichment (R)”: 1.37.
`AGAAUUGCCCUAUACCUGAGCCUCAACCUUCUGGGGGAAGGGAACUAGAUAACAUGCUUUGUGUGUAUCUGUGUAGUUCUGUGUUGCAGACGGAUGAUAUAUAAUGAUAA` — result for “RBNS enrichment (R)”: 0.451.
`UUCAGGAACCUUGUCUGUUGUACAGGGAUAAAACCCACAAGAACAUGGGUACAGAACAGUUUUGGAAUGAACAUUGCCAGUGCUACAAUUGCACUAGUGGGGACUGCUUU`: “RBNS enrichment (R)” 0.455.
Under “RBNS enrichment (R)”, `AUGCAUUGGCCAGAGAGCCCGGGCUGGCUGUGCACAGCAUUCAUGUAGCUGAUUUCUAGCUUUUUUUUUUUUUCUGCCCCACUCCUGAGCAAAUCUGUCUUGCCAAGGAA` is recorded as 1.5.
`AUCAAACUCUUCACUUUUUUGACUCAAGUGUUGUUGUUCAGUCUCUCGCGUGUCAAUGUGGUCAUGGUUCAUGAAACCGGACCCUCAAGAUGGAUGAUUGCUUUUAACUA` — result for “RBNS enrichment (R)”: 0.345.
`AAGGACUCGCAGGGGCAGUCGCAGCUGAUGUUUGAGUGCCCUGGGAUGGGAGUCAGACUGGCUGAGGUUUCAAUUUUGCAUUCAUGGCCAGCCACCGUUCCAGGUCCUGU` — result for “RBNS enrichment (R)”: 0.488.
Under “RBNS enrichment (R)”, `UACAGUUGUCAGAAGUGACUCAUUCGCUUCAUUUGUGAUGAUUUUUUUUUAAUCUUCCUCUGUUAGCCCACAGGACAUGUUUUGGGGAAAAUGAUACUUGUAAAUCUUCU` is recorded as 0.367.
For `AAUCUCAUAUUGGAGAGUGAAUGUCGUUAAGUAUUUCUGAAAUGUUUCUAAAAAAUGAACAUGAAAAAAAUAAGGUAUUUUCUCCCUAGCUUCUCAUUACAGUAUUUCUA`, “RBNS enrichment (R)” read 0.377.
`UUAACUGUCGUGUGGCUCGUUGCUAAAUCAUGACAAUGGCUGCCUAUCUGCUGCUUCUUAGGUUGCUGUUGUACAUGGAACCAGGACUAGAGAUUUUUUCAGAUUUAUAG` — result for “RBNS enrichment (R)”: 0.516.
`ACUGCUGCCACCUCUCUGGCCAAUGGCCCUUUCACUGGCCUGGUGACUGGAAUGUGGGCAGCGCCCACACAGGCUCUGGCCCAUGGCUUCCUACUGGCAGCUCCAGGCAC`: “RBNS enrichment (R)” 0.264.
`GUCAGCUAGGCCAAUAGGAACAGACCGGGACCUUGUCUCACACUGAUGAUACCUCACAUGUUGACCGGCUAUGUGAACUGCCUAUUUCCUAUGCUGGAGUUUUGAUUUUU`: “RBNS enrichment (R)” 0.634.

Mixed results
For `GGGAGUUCUACAGUCCGACGAUCGGUCAUUUACCGCAAUCCGAGUGGGUUGCCCCUCUACUUCUCCCAAGAAGAAAUCCCAAACCGAUUCCUUUCAUGUCAGAUUAUACUGUUCUGAUUUUAUUUUCUAUUAUUUUUACAUAUCAACAGAGGAUUGAGCAUCA`, the bound/input enrichment was 0.421 ratio (RING finger protein unkempt homolog, zinc fingers 1-6, SBP tag (UNK, Homo sapiens, UniProt Q9C0B0, residues 30-357); RNA Bind-n-Seq; RNA, in vitro; 100 nM, RNA with constant flanks, ends assumed; baseline: input RNA pool, higher = stronger binding).

For quick reference, copied from above (block 2):
With `CGCACGG` the 7-mer Z-score was -0.251.
The 7-mer Z-score of `CCUUUCC` is reported as -0.387.
For `AGAUAAC`, the 7-mer Z-score was -0.0899.
For `AGCUACC`, the 7-mer Z-score was 0.0696.
With `CAAACUU` the 7-mer Z-score was 0.0787.
The 7-mer Z-score of `CGUUCAG` is reported as -0.304.
`CGUUUCG` gave a 7-mer Z-score of -0.566.
`UGGACAG` gave a 7-mer Z-score of 0.075.
The 7-mer Z-score of `UAUUAUC` is reported as -0.295.
